{"data": "Assay results pooled from the literature", "UCHL1": "Ubiquitin carboxyl-terminal hydrolase isozyme L1 (UCHL1, Homo sapiens, UniProt P09936)", "note": "± marks the error that the study gave.", "chain of UniProt P09936 (whole entry, looked up)": "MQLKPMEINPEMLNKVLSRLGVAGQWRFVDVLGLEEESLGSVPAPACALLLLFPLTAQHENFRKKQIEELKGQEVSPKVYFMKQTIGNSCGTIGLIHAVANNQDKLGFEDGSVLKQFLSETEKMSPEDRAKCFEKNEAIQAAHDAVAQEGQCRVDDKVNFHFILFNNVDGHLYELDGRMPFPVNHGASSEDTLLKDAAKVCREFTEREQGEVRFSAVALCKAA"}
{"Compound": "Cc1nc(C(=O)NCC(=O)O)c(O)c2ccc(Oc3ccccc3)cc12", "setting": "second acidic centre", "measurement": "pKa", "value": 8.6}
{"Compound": "CCn1cc(C)c2c([C@H](N)c3ccc(C(F)(F)F)nc3)n(C)nc2c1=O", "assay": "potentiometric titration", "measurement": "pKa", "value": 4.14}
{"Compound": "O=C(O)CNC(=O)c1c(O)cc(CCc2ccccc2)n2ncnc12", "setting": "second acidic centre", "measurement": "pKa", "value": 7}
{"Compound": "CCCCCCCCCCCCCCCCN(C)C", "assay": "extrapolated from shorter analogues", "measurement": "pKa", "value": 10}
{"Compound": "O=C(NCCN1CCCC1)c1cc(-c2ccc(CN3CCOCC3)cc2)nc2ccc(F)cc12", "assay": "potentiometric titration", "test system": "water with 10% DMSO", "setting": "second pKa", "measurement": "pKa", "value": "6.82 ± 0.04"}
{"Compound": "CCCCCCCCCCNC", "assay": "extrapolated from shorter analogues", "measurement": "pKa", "value": 10.8}
{"Compound": "CCCCC1=NC2(CCCC2)C(=O)N1Cc1ccc(-c2ccccc2S(=O)(=O)Nc2noc(C)c2C)c(COCC)c1", "setting": "basic", "measurement": "pKa", "value": 4.09}
{"Compound": "C=C(F)C(=O)N1CCN(c2nc(OC[C@@H]3CCCN3C)nc3c2CCN(c2cccc4cccc(Cl)c24)C3)C[C@@H]1CC#N", "assay": "potentiometric", "setting": "second basic pKa", "measurement": "pKa", "value": 8.82}
{"Compound": "O=S([O-])(=S)c1ccccc1.[Na+]", "measurement": "pKa", "value": "~1.32"}
{"Compound": "CC(C)(C)c1ccc(CN2CCN(C(c3ccccc3)c3ccc(Cl)cc3)CC2)cc1 (stereo not drawn)", "assay": "acid-base titration", "test system": "water", "setting": "20 °C", "measurement": "pKa", "value": 3.73}
{"Compound": "CCCC(=O)Nc1cc(C2CC2)[nH]n1", "measurement": "pKa", "value": 2.89}
{"Compound": "O=C(O)CNC(=O)c1ncccc1O", "setting": "second acidic centre", "measurement": "pKa", "value": 7.6}
{"Compound": "COCCc1ccc(OCC(O)CNC(C)C)cc1 (stereo not drawn)", "assay": "n-hexane/buffer partitioning", "test system": "aqueous", "setting": "pH 7", "measurement": "pKa", "value": "9.71 ± 0.05"}
{"Compound": "Nc1nc2c(nc([N+](=O)[O-])n2[C@@H]2O[C@H](CO)[C@@H](O)[C@H]2O)c(=O)[nH]1", "assay": "UV absorption, measured: N1 deprotonation", "test system": "water", "setting": "25 °C", "measurement": "pKa", "value": 8.45}
{"Compound": "C=CC(F)(F)Oc1cccc(C(=O)O)c1", "assay": "UV-metric", "setting": "25 °C, aqueous extrapolated", "measurement": "pKa", "value": 3.7}
{"Compound": "CCC(C)n1ncn(-c2ccc(N3CCN(c4ccc(OCC5COC(Cn6cncn6)(c6ccc(Cl)cc6Cl)O5)cc4)CC3)cc2)c1=O (stereo not drawn)", "setting": "monoprotic base", "measurement": "pKa", "value": 3.6}
{"Compound": "Cn1c(COc2cccc3cccnc23)nnc1SCC(N)=O", "measurement": "pKa", "value": 4.26}
{"Compound": "N#CC(C#N)=C(N)C1(C#N)OC1c1ccc(F)cc1 (stereo not drawn)", "tested on": "UCHL1", "assay": "covalent, intact protein LC-MS", "setting": "12.5 µM", "measurement": "labelling", "value": "26.5%"}
{"Compound": "Cc1ccc2cccc(O)c2n1", "assay": "capillary electrophoresis", "measurement": "pKa", "value": 9.6}
{"Compound": "CC(=O)C(C)n1ncn(-c2ccc(N3CCN(c4ccc(OC[C@H]5CO[C@](Cn6cncn6)(c6ccc(Cl)cc6Cl)O5)cc4)CC3)cc2)c1=O (stereo partly drawn)", "measurement": "pKa", "value": 3.33}
{"Compound": "CCCCCCCCCCN(C)C", "assay": "extrapolated from shorter analogues", "measurement": "pKa", "value": 10}
{"Compound": "O=C(NCc1nc(-c2ccc(C(F)(F)F)cc2)cs1)[C@H]1CCCN(C(=O)CO[C@H]2CCCNC2)C1", "assay": "potentiometric titration", "measurement": "pKa", "value": 9.7}
{"Compound": "COc1cc(OC)c(NC(=O)CSc2nnc(-c3ccncc3)n2C)cc1Cl", "measurement": "pKa", "value": 3.49}
{"Compound": "CC(C)(C)N1Cc2cccc(n2)CN(C(C)(C)C)Cc2cccc(n2)C1", "test system": "0.1 M NaCl", "setting": "25 °C, HL+ deprotonation", "measurement": "pKa", "value": 11.2}
{"Compound": "O=C(O)C(F)(F)F", "assay": "19F NMR titration", "test system": "MeOH/water", "setting": "27 °C", "measurement": "pKa", "value": 0.03}
{"Compound": "O=C1c2c(O)cc(O)cc2O[C@H](c2cc(O)c(O)c(O)c2)[C@H]1O", "assay": "potentiometric titration", "test system": "25, 50 and 75% methanol v/v", "setting": "added: sodium hydroxide titrant", "measurement": "pKa", "value": 7.9}
{"Compound": "C=CC(=O)Nc1cc(Nc2nccc(-c3cn(C)c4ccccc34)n2)c(OC)cc1N(C)CCN(C)C", "measurement": "pKa", "value": 4.4}
{"Compound": "COC(=O)c1ccccc1Oc1nc(NC(C)C)nc(NC(C)C)n1", "measurement": "pKa", "value": 3.18}
{"Compound": "COc1cc(C)c2cc(C3(NS(=O)(=O)c4ccccc4-c4ccccc4)COC3)oc2c1", "setting": "acidic", "measurement": "pKa", "value": 10.4}
{"Compound": "O=C(O)c1ccc2nc(-c3cc(Cl)cc(Cl)c3)oc2c1", "assay": "in-house determination", "measurement": "pKa", "value": 3.6}
{"Compound": "CC(C)C(Br)C(=O)Nc1ccc(Oc2ccccc2)cc1 (stereo not drawn)", "tested on": "UCHL1", "assay": "covalent, intact protein LC-MS", "setting": "12.5 µM", "measurement": "labelling", "value": "15.7%"}
{"Compound": "N=C(N)c1ccc2cc(C#Cc3cccc(OC4CCCC4)c3)ccc2c1", "measurement": "pKa", "value": 10.9}
{"Compound": "O=C(O)CNC(=O)c1ncc(-c2cccc(F)c2)cc1O", "setting": "second acidic centre", "measurement": "pKa", "value": 7.7}
{"Compound": "NC(=O)c1ccc(C(=O)Nc2cc(C3CC3)[nH]n2)cc1", "measurement": "pKa", "value": 3.05}
{"Compound": "CN1CCC(COc2cnc(-c3cccc(Cn4nc(-c5cccc(C#N)c5)ccc4=O)c3)nc2)CC1", "setting": "pKa 2", "measurement": "pKa", "value": 2.8}
{"Compound": "CC1CCN(S(=O)(=O)c2ccc(Cl)c(C(=O)Nc3ccc(C(=O)O)cc3)c2)CC1", "measurement": "pKa", "value": 3.77}
{"Compound": "CCCCCCCCCCCCNC", "assay": "extrapolated from shorter analogues", "measurement": "pKa", "value": 10.8}
{"Compound": "COc1ccc(NC(=O)c2ccco2)cc1NC(=O)c1cccnc1", "measurement": "pKa", "value": 2.99}
{"Compound": "Cc1ccccc1CN1C(=O)C2=C(CCN(Cc3ccccc3)C2)N2CCN=C12", "assay": "potentiometric titration", "test system": "water", "setting": "second of two pKa", "measurement": "pKa", "value": 4.99}
{"note": "Repeated from above:"}
{"Compound": "C=CC(=O)Nc1cc(Nc2nccc(-c3cn(C)c4ccccc34)n2)c(OC)cc1N(C)CCN(C)C", "measurement": "pKa", "value": 4.4}
{"Compound": "NC(=O)c1ccc(C(=O)Nc2cc(C3CC3)[nH]n2)cc1", "measurement": "pKa", "value": 3.05}
{"Compound": "COc1ccc(NC(=O)c2ccco2)cc1NC(=O)c1cccnc1", "measurement": "pKa", "value": 2.99}
{"Compound": "COCCc1ccc(OCC(O)CNC(C)C)cc1 (stereo not drawn)", "assay": "n-hexane/buffer partitioning", "test system": "aqueous", "setting": "pH 7", "measurement": "pKa", "value": "9.71 ± 0.05"}
{"Compound": "CCC(C)n1ncn(-c2ccc(N3CCN(c4ccc(OCC5COC(Cn6cncn6)(c6ccc(Cl)cc6Cl)O5)cc4)CC3)cc2)c1=O (stereo not drawn)", "setting": "monoprotic base", "measurement": "pKa", "value": 3.6}
{"Compound": "Nc1nc2c(nc([N+](=O)[O-])n2[C@@H]2O[C@H](CO)[C@@H](O)[C@H]2O)c(=O)[nH]1", "assay": "UV absorption, measured: N1 deprotonation", "test system": "water", "setting": "25 °C", "measurement": "pKa", "value": 8.45}
